Measured values from different studies.
Target: Rho-associated protein kinase 2 (ROCK2, Homo sapiens, UniProt O75116)
UniProt O75116, sequence (whole entry, looked up): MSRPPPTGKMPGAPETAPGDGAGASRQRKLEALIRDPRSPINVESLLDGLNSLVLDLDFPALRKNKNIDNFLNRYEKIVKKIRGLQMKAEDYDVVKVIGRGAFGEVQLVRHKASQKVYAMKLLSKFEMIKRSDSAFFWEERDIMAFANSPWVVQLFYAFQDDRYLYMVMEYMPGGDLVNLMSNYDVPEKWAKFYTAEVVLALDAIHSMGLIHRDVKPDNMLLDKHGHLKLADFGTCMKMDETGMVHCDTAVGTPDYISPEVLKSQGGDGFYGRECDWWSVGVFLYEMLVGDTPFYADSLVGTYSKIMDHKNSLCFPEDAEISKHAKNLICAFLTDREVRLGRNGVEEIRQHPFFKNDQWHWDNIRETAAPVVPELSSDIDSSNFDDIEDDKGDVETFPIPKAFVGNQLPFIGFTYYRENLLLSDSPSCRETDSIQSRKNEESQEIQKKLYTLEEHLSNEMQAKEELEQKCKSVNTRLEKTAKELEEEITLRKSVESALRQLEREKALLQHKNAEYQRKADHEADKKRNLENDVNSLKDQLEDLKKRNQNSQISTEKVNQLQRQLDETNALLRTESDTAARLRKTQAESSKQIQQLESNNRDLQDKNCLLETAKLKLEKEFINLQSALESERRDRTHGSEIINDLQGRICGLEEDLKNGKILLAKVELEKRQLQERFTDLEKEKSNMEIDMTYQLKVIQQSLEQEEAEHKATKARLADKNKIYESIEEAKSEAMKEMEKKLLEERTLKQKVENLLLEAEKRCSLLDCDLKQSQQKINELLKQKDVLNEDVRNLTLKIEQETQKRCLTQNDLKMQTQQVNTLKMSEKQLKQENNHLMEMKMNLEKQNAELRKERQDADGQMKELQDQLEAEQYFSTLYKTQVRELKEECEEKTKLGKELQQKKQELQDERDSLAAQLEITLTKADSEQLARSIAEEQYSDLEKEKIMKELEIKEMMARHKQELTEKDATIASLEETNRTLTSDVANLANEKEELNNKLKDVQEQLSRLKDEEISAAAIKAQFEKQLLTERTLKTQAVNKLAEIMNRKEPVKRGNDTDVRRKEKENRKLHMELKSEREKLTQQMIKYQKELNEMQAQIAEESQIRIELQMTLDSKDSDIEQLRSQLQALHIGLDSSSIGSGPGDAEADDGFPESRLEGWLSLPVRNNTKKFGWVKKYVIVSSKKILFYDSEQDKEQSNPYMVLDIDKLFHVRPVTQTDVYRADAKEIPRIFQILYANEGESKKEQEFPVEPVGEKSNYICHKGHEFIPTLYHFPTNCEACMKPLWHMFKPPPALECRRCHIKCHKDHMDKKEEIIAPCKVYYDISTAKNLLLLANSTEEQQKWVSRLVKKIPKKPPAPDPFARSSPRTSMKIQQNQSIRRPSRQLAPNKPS

Structure (SMILES) | test | conditions | how to read | endpoint | result
CCOC(=O)[C@@H]1Cc2c(cc([N+](=O)[O-])cc2[N+](=O)[O-])[C@H](O)[C@]12C(=O)Nc1ccc(Br)cc12 | binding, competition with immobilised ligand | 0.1 µM | – | remaining binding | 24%
CC(C)[C@H]1NC(=O)C[C@H]2/C=C/CCSSC[C@@H](NC1=O)C(=O)N[C@H](Cc1cccc3ccccc13)C(=O)NCC(=O)O2 | enzyme activity, inhibitor | 10 µM | – | inhibition | -2.7%
O=C1NC(=O)c2c1c1cc(F)c[n+]3c1c1c2c2cc(O)ccc2[n]1[Ru-4]312([N]=C=S)[S+]3CC[S+]1CC[S+]2CC3 (centres unmarked) | enzyme activity | 100 nM, human enzyme, added: 10 µM ATP | relative to: untreated | remaining activity | 91%
CS(C)(=O)=Nc1ccc(-c2ccc(-c3nc4cc(O[C@@H]5CO[C@H]6[C@@H]5OC[C@H]6O)[nH]c4cc3F)cc2)cc1 | enzyme activity, inhibitor | 10 µM | – | inhibition | 13%
Nc1ccc(/C=C/C(=O)N2CCc3c(oc4c(-c5ccc(F)cc5)cc(-c5ccc(C(=O)N6CCC(F)(F)CC6)cn5)cc34)C2)cn1 | binding, competition with immobilised ligand | 1 µM | – | remaining binding | 88%
C[C@@H]1COCCN1c1nc(NCc2cccnc2C(F)(F)F)c2cccnc2n1 | inhibitor | – | – | IC50 | > 100 µM
C[C@H](NCc1ccc(-c2ccc(C(F)(F)F)cc2)cc1)C(N)=O | cell-free assay, competition with immobilised ligand | 1 µM | – | inhibition | 0%
O=C(N[C@@H]1c2ccccc2C[C@H]1N1CCCC1)c1ccc(-c2ccnc3[nH]ccc23)nc1 | binding, competition with immobilised ligand | 3 µM | – | remaining binding | 0%

Excerpt of the above:
Structure (SMILES) | test | conditions | how to read | endpoint | result
O=C1NC(=O)c2c1c1cc(F)c[n+]3c1c1c2c2cc(O)ccc2[n]1[Ru-4]312([N]=C=S)[S+]3CC[S+]1CC[S+]2CC3 (centres unmarked) | enzyme activity | 100 nM, human enzyme, added: 10 µM ATP | relative to: untreated | remaining activity | 91%
